Published values from different studies.
Each numbered part is a random draw from the data of one study; scales do not carry over between parts. Substitutions count along the parent as printed.

Series 1 — technique: RNA Bind-n-Seq; molecule type: RNA; matrix: in vitro; tested at: 365 nM; baseline: no-protein control; reading: higher = stronger binding
Target: RNA binding protein fox-1 homolog 2, RRM domain, GST-SBP tag (RBFOX2, Homo sapiens, UniProt O43251-10, residues 100-194)
Notes: natural RNA segment, single round, ends assumed
Shared flanks, not repeated: GGGAGUUCUACAGUCCGACGAUC … UGGAAUUCUCGGGUGCCAA
Residues (chain): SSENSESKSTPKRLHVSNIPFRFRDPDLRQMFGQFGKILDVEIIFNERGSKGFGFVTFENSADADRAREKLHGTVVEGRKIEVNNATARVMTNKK
Sequence	RBNS enrichment (R)
CUGCCCACAGCUUCCUACAUCGAACAUGUCCAUGGUCCGAGAUGCCAUUUCAAACAGUUCCAGUGACCUACUCCUUUUAAGUUGGACACCGAGGCCAAAGGCUGCCUCAG	0.471
AGCUGGGCCCAGCCGGGCCGUGCCUGCUGGCACAGACGCCUUAACGCUGUGUGUAUGACUGUGUGACUGUGUGGGAGCCUGGACUGACAGAUAGGCCAAGGGCUACUCUC	0.4
CUUUUUUUAAUUGUUAAAUUGAAUUUUAUACCAAUGUUUAAACUUAAAUUGGGUGUUAGCUUGAGGUGUUUUGGGGGAGUUUGUUGUAAUGGUUUUGCUGUAAACUGUGU	0.782
AGGAGGCUGAGGGUUAGGACACAGUAAAAUGAAUUUAACAGUUUCACUGCUUUCUCAAGUAGUUUUGAGUGCUGGGUCCUUAAAACCCAACUAUGCAUUUUUGUCUGAAA	0.306
CUACUUUAUGUAAUGGGGUCGAAAUCUUUGAACACAUUAUUUAUAAAAACCUGUUUAAAAAUUCUAAGUCUUUUGACAUUUUUCUUAGAAUAGUAUCAAAAGAGAUUGGA	0.423
UAAGUUUUUGAUUUAUCUUACUUGGUAAAUGAAAUGCAUUAGCUGUCUGCCUUUUCCUUCCCAUCCUCUGCCCAGCCUGUCCACUGUCCCUGCUCCUCCACCCCCUCCCA	0.892
UUCCUGCAGUUCUCAAAGGGGAGCCUGCAGACUAGGCCUUCAGAGGGUUCCUUCUGUUUCCUAUUUGGGCACUGAGCCAGAGGAUGGAGUUGUCUCCCUGACAAAUAAUG	0.322
CUAUAUCCCAUGUAAGGGAUCUGGGGAGGAGGCAUGUGUCUACAACCAUACCUUUUUGCACUAUGGGCACUAACCACCCUGAAACUUCCUGCGGUAGCUCCCUCCCUUCA	0.687
AGAAAAAAUGUCCCUUACAGGAACCGGCAGCAGCUAGGCAGUCACCGGCCCGCCUCCAUCCAAAAUCACGCUCGCGUGCUUCGGAAGCAUCCGGGUCACUCCUUCUCCGC	0.265
CUUAAACAAAAAUUAAAAUCCUCAAUCCAGCUAUGUUAUAUUGAAAAAAUAGAGCCUGAGGGAUCUUUACUAGUUAUAAAGAUACAGAACUCUUUCAAAACCUUUUGAAA	0.4
CCACAAAGGUGCUGGGUGGCUCUCCGGACAGGAGCUGGCCUGACUCUCACUCCUCUGAGGCUUUCCUGGGGCCUCCUCCCAUCCUGCCAUGAGCAAUUGUUUGCUCUUGA	0.46
UGAUAUCCCUUCUAUGAGCACAUUCUUAGCAGAAGAAAACAAUCCAACUACCAACACCCGACUCUAUUGGUGCAUUUAAAAUGUGAUUCCAUUUUUUCUUACAAUUCUUC	0.693

Series 2 — target: CCND1, cyclin fold, Cln2 fusion (human); technique: yeast growth competition, sequencing; matrix: yeast; notes: weak parent motif; baseline: not given; reading: higher = stronger binding
Starting sequence: SAMHD1 docking peptide (human); ASKSRVQLFKDDP; partner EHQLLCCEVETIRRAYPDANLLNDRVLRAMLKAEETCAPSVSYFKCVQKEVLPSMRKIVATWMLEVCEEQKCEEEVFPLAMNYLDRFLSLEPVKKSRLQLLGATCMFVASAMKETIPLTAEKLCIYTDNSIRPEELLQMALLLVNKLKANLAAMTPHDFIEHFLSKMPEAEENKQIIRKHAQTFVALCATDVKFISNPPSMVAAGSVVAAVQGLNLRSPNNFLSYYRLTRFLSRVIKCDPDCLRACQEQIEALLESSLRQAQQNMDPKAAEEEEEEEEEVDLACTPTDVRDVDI
Change	normalised enrichment score
ASKSRVQLFKDHP [D12H]	0.148
ASKSRVQLFEDDP [K10E]	0.764
ASKSRVQLFNDDP [K10N]	0.492
AMKSRVQLFKDDP [S2M]	0.45
ASKSRVQLMKDDP [F9M]	0.505
ATKSRVQLFKDDP [S2T]	0.379
ASKSRVQGFKDDP [L8G]	0.301
ASKSRVQLNKDDP [F9N]	0.282
ASKDRVQLFKDDP [S4D]	0.147
ASKSRVDLFKDDP [Q7D]	-0.311
ASKSRVILFKDDP [Q7I]	0.175
ASKSRVQLFKDAP [D12A]	0.363
ASKSRVQLPKDDP [F9P]	0.139
ASPSRVQLFKDDP [K3P]	1.28
ASKSRDQLFKDDP [V6D]	0.159
ASKSHVQLFKDDP [R5H]	0.509
ASKSRVQLFKDWP [D12W]	0.06
ASKSRFQLFKDDP [V6F]	0.0976
ASKSRVQLFKFDP [D11F]	0.511
ASKSRVQLFKDCP [D12C]	0.26
ASSSRVQLFKDDP [K3S]	0.93
ASKSAVQLFKDDP [R5A]	0.823
ASKSRVQLFIDDP [K10I]	0.654
ASKSRVQLFKADP [D11A]	0.391
ASKSREQLFKDDP [V6E]	0.334

Series 3 — technique: protein-binding microarray; molecule type: double-stranded DNA, one strand shown; matrix: in vitro; tested at: 250 nM; notes: 60-bp whole probe; added: salmon DNA 0.4 mg/ml; baseline: random background probes; reading: higher = stronger binding; shared flanks, not repeated: GCCTAGCAC … GTCTTGATTCGCTTGACGCTGCTG
Target: Interferon regulatory factor 7, full length, phosphomimetic (IRF7, Homo sapiens, UniProt Q92985, residues 1-503, S101K/S471D/S472D/S475D/S476D/S477D/S483D/S484D/S487D)
Construct (chain): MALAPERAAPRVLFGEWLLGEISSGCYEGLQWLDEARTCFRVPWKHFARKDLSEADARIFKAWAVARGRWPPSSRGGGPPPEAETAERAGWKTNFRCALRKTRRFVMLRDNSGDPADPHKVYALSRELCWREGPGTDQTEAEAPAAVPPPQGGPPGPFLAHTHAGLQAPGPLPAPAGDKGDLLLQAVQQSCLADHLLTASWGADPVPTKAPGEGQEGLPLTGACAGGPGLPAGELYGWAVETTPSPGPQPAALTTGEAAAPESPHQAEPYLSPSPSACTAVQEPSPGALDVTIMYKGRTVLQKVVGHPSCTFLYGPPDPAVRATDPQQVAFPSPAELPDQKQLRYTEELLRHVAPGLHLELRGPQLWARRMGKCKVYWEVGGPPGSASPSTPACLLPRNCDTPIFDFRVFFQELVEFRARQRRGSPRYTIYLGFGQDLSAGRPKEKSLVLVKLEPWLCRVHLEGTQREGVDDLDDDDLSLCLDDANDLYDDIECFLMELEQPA
Sequence	log fluorescence [z-score]
TTAGATTCAAGTTTCGATTAGTGCTAG	9.46
GACGAACTGCGGTTTCGAGACGTGCTA	3.24
GACGGTCTGGGACTGGGGACGTGCTAG	-0.49
TTAGACTCCAGTTTCGATTAGTGCTAG	9.09
TGACGGCTCACTCCGTTGGAGTGCTAG	-0.737
TTACGACTGGGTTTCGGTTAGTGCTAG	6.73
CTAGCTTCCATTTTCTGAACGTGCTAG	1.15
TCAAGAGTAGTTTTTCAAACTGTGCTA	-0.521
TGTAGAGTAGCTTTCTGAGGGTGCTAG	-0.921
TTAGCTATCAGACTGGATTAGTGCTAG	-0.413
TCATGGTTCCCATTCCAACTGTGCTAG	1.26
GACGGACTGGACACTGGCGACGTGCTA	-0.944
TCAATGTTCCCTATATAACTGTGCTAG	1.45
TTTCTCTCATTATGTGGGTTGTGCTAG	1.74
AAATCTAAAAAGTCTCTGGGAGTGCTA	-0.152
GACGATATCAGTCTCAAGACGTGCTAG	-0.065
GACCGTTCCGGTTTCGGGACGTGCTAG	5.43
CTAGATCTCAGACTGGATTAGTGCTAG	0.509
TCAGATGTCAAACTCACACTGTGCTAG	-0.194
GACGGTCTCCCACTGCTGACGTGCTAG	-0.31

Series 4 — target: NFE2L3, bZIP domain (human); technique: DHFR protein complementation; matrix: yeast; baseline: wild-type JUN-FOS pair; reading: higher = stronger binding
Notes: single substitutions, most at no-binding floor
Starting sequence: JUN, bZIP domain (human); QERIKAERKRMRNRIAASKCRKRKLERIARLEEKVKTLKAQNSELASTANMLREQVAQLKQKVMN; partner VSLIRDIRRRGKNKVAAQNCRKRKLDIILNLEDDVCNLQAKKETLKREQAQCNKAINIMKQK
Change	binding fitness [natural log]
T48K	-1.36
N42R	-1.46
V35Y	-1.46
T37V	-1.5
A46S	-1.44
M51S	-1.33
E54H	-1.52
E44N	-1.45
A57G	-1.42
L31C	-1.54
Q41W	-1.36
V56L	-1.56
E54G	-1.41
V56E	-1.5
E32S	-1.54
K36R	-1.37
L45I	-1.51
Q41K	-1.27

Series 5 — technique: RNA Bind-n-Seq; molecule type: RNA; matrix: in vitro; tested at: 200 nM; notes: whole 134-nt RNA, ends assumed; added: 150 mM LiCl; baseline: input library; reading: higher = stronger binding; all molecules: 7-deaza-guanosine replaces G
Target: Ras GTPase-activating protein-binding protein 1, full length (G3BP1, Homo sapiens, UniProt Q13283)
Chain of UniProt Q13283 (whole entry, looked up): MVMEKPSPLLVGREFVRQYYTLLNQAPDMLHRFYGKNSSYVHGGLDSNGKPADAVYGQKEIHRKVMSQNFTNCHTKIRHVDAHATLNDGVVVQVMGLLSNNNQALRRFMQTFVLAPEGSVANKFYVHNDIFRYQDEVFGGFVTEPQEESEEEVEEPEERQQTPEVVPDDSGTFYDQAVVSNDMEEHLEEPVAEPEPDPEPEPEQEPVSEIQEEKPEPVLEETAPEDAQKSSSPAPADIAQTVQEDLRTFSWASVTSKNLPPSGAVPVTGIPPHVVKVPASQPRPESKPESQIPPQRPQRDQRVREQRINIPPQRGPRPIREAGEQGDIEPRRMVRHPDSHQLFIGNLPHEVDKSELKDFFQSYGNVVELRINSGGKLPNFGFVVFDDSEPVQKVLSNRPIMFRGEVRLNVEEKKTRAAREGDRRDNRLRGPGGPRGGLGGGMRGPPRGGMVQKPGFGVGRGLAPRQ
Shared flanks, not repeated: GGGAGUUCUACAGUCCGACGAUC … UGGAAUUCUCGGGUGUCAAGG
Sequence	log2 enrichment
CCUGUGCUACACAUCGUAUGUACCGAAUCGGGGAAAGGGGUUUUUGGGGAAAAAAAGGGGAAAGUAUUAUGUUACGCCGUUCGGAUCUGC	0.731
UAUUGGACACAGUGCCCCGCUGAACAGCAGCUGUUCCCAGCGCCAGAGGACCCCACAGCCACAGUAGGAGCUUUGCGACCCCUACGCAAC	-1.49
GUCCUGUGCUACACAUCGUAUGUACCGAAUCGGGGAAAGGGGAGGGGUUUUUUUGGGGAAAGUAUUAUGUUACGCCGUUCGGAUCUGCAC	0.548
UGGGAGGUGGAUUUUGUUUAUUUUUUUAGCUCAUUUCCAGGCGUGGGAAUUUUUUUUUAAUAUGUGUCAUGAAUAAAGUUGUUUUUGAAA	-0.898
UCCUGUGCUACACAUCGUAUGUACCGAAUCGGCCCCCGGGGCCCCCGGGGCCCCCGGGGAAAGUAUUAUGUUACGCCGUUCGGAUCUGCA	-2.18
ACCAUGCAGGUGGGCAUCUUUGGGAAGUGAAACAAGGGGGGGAUAGGGAGGGGGGUAACACUUUGGGAACAGGUGGUCCCAGGUCGUUUC	0.551
UCAAGUCCUGUGCUACACAUCGUAUGUACCGAAUCGGUUUGGGGUUUGGUUUGGGAAAGUAUUAUGUUACGCCGUUCGGAUCUGCACUUC	-1.23
AAGUCCUGUGCUACACAUCGUAUGUACCGAAUCGGGGUUUUUGGGGAGGGGUGGGGAAAGUAUUAUGUUACGCCGUUCGGAUCUGCACUU	-0.284
UCCUGUGCUACACAUCGUAUGUACCGAAUCGGGGUUUUUGGGUUUUUGGGGUUUUUGGGAAAGUAUUAUGUUACGCCGUUCGGAUCUGCA	0.921
GCAGGAAGUAAAAACAAAUGGAAAUGCUUCGGAUAGUGGCAGGGAAAGGGGUUGCUAAGGAAAGGGUGGGAUGGGAGUGGGUAAAGAGUU	0.0161
AAGUCCUGUGCUACACAUCGUAUGUACCGAAUCGGUUUGGAAAAAAAGGAAAAAGGAAAGUAUUAUGUUACGCCGUUCGGAUCUGCACUU	-1.25

Excerpt of the above (series 2):
Change	normalised enrichment score
ASKSRVQLFKDHP [D12H]	0.148
ASKSRVQLFEDDP [K10E]	0.764
ASKSRVQLFNDDP [K10N]	0.492
AMKSRVQLFKDDP [S2M]	0.45
ASKSRVQLMKDDP [F9M]	0.505
ATKSRVQLFKDDP [S2T]	0.379
